Experimental data from different studies.
Protocols differ between the studies behind these lines. Numbers after ± are the reported error.
CBL SH2 domain: E3 ubiquitin-protein ligase CBL, SH2 domain (CBL, Homo sapiens, UniProt P22681)
INPPL1 phosphatase-C2 domains: Phosphatidylinositol 3,4,5-trisphosphate 5-phosphatase 2, phosphatase-C2 domains (INPPL1, Homo sapiens, UniProt O15357)
Sequence of UniProt O15357 (whole entry, looked up): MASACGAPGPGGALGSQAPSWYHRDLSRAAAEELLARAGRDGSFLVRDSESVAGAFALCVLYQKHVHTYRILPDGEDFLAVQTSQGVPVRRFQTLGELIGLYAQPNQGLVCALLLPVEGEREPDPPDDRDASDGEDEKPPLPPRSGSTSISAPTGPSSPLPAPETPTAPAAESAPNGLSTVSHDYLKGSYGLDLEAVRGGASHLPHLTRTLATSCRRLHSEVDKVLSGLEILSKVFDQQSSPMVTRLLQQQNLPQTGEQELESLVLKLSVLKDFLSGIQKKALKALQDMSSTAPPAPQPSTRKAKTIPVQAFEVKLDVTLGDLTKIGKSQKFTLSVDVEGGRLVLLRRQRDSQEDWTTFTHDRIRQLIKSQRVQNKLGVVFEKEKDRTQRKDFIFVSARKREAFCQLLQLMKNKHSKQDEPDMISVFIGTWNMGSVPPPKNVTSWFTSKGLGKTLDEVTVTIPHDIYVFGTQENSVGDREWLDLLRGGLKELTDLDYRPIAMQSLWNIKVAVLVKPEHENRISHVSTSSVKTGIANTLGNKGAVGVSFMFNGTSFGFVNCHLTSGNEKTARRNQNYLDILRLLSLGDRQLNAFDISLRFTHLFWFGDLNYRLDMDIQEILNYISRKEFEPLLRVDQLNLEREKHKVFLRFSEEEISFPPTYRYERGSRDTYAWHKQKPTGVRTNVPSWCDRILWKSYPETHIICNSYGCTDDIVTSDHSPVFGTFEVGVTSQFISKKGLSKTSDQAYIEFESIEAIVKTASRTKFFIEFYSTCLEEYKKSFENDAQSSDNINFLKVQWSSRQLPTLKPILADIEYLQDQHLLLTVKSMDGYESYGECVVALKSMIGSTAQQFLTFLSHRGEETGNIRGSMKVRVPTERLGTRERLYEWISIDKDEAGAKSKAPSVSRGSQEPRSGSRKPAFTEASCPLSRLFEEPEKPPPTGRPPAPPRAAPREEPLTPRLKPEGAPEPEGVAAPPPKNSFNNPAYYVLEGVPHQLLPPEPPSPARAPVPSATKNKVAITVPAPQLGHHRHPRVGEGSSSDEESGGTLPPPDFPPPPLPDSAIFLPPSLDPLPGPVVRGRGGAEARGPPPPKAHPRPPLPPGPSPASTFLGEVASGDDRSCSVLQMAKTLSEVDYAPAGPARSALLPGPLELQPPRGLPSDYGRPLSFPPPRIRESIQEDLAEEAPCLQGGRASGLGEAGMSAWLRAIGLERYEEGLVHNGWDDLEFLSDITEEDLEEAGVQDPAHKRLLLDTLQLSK
CBL TKB domain: E3 ubiquitin-protein ligase CBL, TKB domain (CBL, Homo sapiens, UniProt P22681)
Sequence of UniProt P55201 (whole entry, unmodified, looked up): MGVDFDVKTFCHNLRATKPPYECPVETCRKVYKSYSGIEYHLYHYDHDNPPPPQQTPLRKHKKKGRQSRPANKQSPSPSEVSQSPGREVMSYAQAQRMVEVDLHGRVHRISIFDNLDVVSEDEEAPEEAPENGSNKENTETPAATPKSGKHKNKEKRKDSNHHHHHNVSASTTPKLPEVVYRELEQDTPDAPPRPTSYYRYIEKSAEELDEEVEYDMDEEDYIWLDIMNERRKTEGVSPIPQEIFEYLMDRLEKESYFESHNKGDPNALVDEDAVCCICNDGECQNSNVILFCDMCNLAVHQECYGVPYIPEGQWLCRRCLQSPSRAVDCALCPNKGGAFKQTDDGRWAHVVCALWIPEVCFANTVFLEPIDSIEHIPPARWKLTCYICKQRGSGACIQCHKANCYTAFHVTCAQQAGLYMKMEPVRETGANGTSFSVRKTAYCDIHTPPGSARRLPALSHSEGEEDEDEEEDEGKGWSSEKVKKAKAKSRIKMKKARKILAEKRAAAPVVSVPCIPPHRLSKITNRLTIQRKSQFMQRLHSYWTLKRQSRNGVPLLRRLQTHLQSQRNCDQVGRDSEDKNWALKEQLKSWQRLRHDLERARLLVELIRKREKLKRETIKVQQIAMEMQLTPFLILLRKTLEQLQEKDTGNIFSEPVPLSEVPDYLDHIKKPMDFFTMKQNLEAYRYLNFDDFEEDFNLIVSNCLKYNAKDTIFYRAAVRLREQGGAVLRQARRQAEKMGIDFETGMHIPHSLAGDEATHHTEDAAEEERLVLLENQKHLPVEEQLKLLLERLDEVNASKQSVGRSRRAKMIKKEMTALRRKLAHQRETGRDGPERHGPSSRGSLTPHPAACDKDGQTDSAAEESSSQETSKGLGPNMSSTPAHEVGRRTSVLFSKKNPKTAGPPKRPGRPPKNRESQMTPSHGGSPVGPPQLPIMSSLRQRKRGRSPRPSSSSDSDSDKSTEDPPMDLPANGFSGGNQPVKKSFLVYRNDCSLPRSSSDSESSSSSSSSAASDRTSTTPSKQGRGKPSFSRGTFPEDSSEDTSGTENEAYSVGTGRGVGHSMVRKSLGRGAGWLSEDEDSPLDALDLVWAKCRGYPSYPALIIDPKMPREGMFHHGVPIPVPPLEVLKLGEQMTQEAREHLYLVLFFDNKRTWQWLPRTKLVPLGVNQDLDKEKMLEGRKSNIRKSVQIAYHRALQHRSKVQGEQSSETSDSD
Sequence of UniProt P28887 (whole entry, looked up): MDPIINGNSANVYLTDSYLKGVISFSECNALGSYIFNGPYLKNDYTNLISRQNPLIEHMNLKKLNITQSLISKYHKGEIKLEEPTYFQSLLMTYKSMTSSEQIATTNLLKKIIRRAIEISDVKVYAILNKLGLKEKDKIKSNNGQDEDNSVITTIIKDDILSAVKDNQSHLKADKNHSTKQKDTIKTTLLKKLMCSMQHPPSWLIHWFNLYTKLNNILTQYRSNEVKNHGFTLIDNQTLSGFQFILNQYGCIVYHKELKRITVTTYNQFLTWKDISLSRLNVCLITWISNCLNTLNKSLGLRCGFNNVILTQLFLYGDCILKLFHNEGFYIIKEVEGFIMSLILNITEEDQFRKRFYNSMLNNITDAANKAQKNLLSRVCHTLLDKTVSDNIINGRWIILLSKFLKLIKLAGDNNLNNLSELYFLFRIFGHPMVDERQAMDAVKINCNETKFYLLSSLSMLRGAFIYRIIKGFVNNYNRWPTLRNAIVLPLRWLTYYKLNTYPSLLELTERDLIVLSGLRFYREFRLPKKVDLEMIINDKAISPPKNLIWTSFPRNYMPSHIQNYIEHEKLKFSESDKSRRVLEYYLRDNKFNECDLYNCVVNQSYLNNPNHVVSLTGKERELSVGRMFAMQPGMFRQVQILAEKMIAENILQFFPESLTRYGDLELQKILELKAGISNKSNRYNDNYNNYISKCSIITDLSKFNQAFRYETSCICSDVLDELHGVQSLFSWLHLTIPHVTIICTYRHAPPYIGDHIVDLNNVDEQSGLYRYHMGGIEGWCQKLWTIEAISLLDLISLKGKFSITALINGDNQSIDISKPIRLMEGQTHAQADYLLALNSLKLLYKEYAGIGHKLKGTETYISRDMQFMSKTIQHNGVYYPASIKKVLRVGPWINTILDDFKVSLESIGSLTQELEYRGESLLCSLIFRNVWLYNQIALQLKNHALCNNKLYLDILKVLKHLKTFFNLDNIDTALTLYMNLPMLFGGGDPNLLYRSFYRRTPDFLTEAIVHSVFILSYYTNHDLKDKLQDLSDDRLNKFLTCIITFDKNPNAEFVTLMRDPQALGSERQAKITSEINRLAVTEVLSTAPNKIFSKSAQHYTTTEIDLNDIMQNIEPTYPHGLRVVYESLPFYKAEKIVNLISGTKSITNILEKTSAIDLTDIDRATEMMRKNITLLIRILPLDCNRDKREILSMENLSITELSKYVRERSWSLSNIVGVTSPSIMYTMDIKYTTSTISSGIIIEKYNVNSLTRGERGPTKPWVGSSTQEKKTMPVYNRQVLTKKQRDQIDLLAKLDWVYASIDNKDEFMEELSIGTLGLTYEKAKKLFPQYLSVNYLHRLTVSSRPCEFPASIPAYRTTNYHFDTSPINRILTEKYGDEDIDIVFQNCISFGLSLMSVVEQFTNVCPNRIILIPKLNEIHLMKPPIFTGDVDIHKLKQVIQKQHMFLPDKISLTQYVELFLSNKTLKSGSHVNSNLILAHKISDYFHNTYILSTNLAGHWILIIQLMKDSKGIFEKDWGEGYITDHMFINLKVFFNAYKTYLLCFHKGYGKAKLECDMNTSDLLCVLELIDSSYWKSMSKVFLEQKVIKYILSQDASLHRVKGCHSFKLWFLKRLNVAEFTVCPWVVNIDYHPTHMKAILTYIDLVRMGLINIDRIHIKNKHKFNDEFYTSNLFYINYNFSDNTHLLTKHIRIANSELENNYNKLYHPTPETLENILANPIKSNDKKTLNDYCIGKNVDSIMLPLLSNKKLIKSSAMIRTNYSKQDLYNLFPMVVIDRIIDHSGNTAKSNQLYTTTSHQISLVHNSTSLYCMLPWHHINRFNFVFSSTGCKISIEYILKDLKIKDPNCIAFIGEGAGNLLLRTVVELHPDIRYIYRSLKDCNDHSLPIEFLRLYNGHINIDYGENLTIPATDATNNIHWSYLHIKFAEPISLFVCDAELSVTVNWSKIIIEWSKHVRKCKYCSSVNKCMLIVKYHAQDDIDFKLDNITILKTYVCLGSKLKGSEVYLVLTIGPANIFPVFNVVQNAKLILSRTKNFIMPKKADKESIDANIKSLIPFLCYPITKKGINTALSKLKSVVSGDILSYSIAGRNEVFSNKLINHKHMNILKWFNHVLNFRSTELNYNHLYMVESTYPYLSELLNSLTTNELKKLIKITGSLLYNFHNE

Structure (SMILES) | tested on | test | test system | conditions | scale | measurement | result
CSCC[C@H](NC(=O)[C@H](CC(=O)O)NC(=O)[C@H](CCCNC(=N)N)NC(=O)[C@H](C)NC(=O)[C@H](CC(C)C)NC(=O)c1ccc2c(c1)C(=O)OC21c2ccc(N(C)C)cc2Oc2cc(N(C)C)ccc21)C(=O)N[C@@H](Cc1ccc(O)cc1)C(=O)N[C@@H](CC(=O)O)C(=O)N[C@@H](CCCCN)C(=O)N[C@@H](CCC(=O)O)C(=O)N[C@@H](Cc1ccc(OP(=O)(O)O)cc1)C(=O)N[C@@H](Cc1ccc(O)cc1)C(=O)N[C@@H](CO)C(=O)N[C@H](C(=O)N[C@@H](Cc1c[nH]cn1)C(=O)N[C@@H](CC(N)=O)C(=O)N[C@@H](CCCCN)C(=O)N[C@H](C(=O)N[C@@H](CC(=O)O)C(=O)O)[C@@H](C)O)C(C)C | CBL SH2 domain | – | – | human protein | – | Kd | 0.931 µM
COCCCNC(=O)c1ccc(Cn2c(=O)c3ccccc3n(Cc3ccc([N+](=O)[O-])cc3)c2=O)cc1 | RNA-directed RNA polymerase L (Human respiratory syncytial virus A, UniProt P28887) | – | – | – | – | EC50 | 1 µM
CC(C)C[C@H](NC(=O)[C@H](CCCCN)NC(=O)[C@H](CCCCN)NC(=O)Cc1cccc(CNC(=O)[C@@H](C)NC(=N)N)c1)B(O)O | Prothrombin (F2, Bos taurus, UniProt P00735) | – | – | 100 µM | – | inhibition | 56 ± 14%
Cc1cc(N2CCNCC2)nc(C#N)n1 | INPPL1 phosphatase-C2 domains | enzyme activity, inhibitor | – | – | – | IC50 | 1700 µM
CC(=O)NCCCC[C@H](NC(=O)CNC(=O)[C@H](CCCNC(=N)N)NC(=O)CNC(=O)[C@@H](N)CO)C(=O)NCC(=O)NCC(=O)N[C@@H](CCCCN)C(=O)NCC(=O)N[C@@H](CC(C)C)C(=O)O | Peregrin (BRPF1, Homo sapiens, UniProt P55201, Y665F) | – | – | – | – | Kd | no binding
CC(=O)N[C@@H](Cc1ccc(OP(=O)(O)O)cc1)C(=O)N[C@H](C(=O)N1CCC[C@H]1C(=O)N[C@@H](C)C(=O)N1CCC[C@H]1C(N)=O)[C@@H](C)O | CBL TKB domain | – | – | – | – | Ki | 18.1 ± 5.7 µM
O=C(NCc1c(F)cccc1F)c1sccc1OCc1ccc(Cl)cc1Cl | INPPL1 phosphatase-C2 domains | enzyme activity, inhibitor | – | – | – | IC50 | > 900 µM
CSCC[C@H](NC(=O)[C@H](CC(C)C)NC(=O)CNC(=O)[C@H](Cc1ccccc1)NC(=O)[C@H](Cc1ccccc1)NC(=O)[C@H](CCC(N)=O)NC(=O)[C@H](CCC(N)=O)NC(=O)[C@@H]1CCCN1C(=O)[C@H](CCCCN)NC(=O)[C@@H]1CCCN1C(=O)[C@@H](N)CCCN=C(N)N)C(N)=O | – | ELISA | mouse, diabetic, serum | intravenous, dose not given | – | time to full degradation | 5 min
CSCC[C@H](NC(=O)[C@H](CCC(=O)O)NC(=O)c1ccc2c(c1)C(=O)OC21c2ccc(N(C)C)cc2Oc2cc(N(C)C)ccc21)C(=O)N[C@H](C(=O)N[C@@H](CO)C(=O)N[C@@H](CC(N)=O)C(=O)N[C@@H](CCC(=O)O)C(=O)N[C@@H](CO)C(=O)N[C@H](C(=O)N[C@@H](CC(=O)O)C(=O)N[C@@H](Cc1ccc(OP(=O)(O)O)cc1)C(=O)N[C@@H](CCCNC(=N)N)C(=O)N[C@@H](C)C(=O)N[C@H](C(=O)N[C@@H](Cc1ccccc1)C(=O)N1CCC[C@H]1C(=O)N[C@@H](CCC(=O)O)C(=O)N[C@@H](CC(=O)O)C(=O)N[C@@H](CC(=O)O)C(=O)O)[C@@H](C)O)C(C)C)C(C)C | CBL SH2 domain | – | – | human protein | – | Kd | 0.131 µM
Cc1sc2c(c1C)C(c1ccc(Cl)cc1)=N[C@@H](CC(=O)OC(C)(C)C)c1nnc(C)n1-2 | NMC-797 | qRT-PCR, refers to: keratin-14 mRNA | – | 250 nM, 48 h | relative to: untreated | fold induction | 30 fold
C[C@H](NC(=O)c1sccc1OCc1ccc(Cl)cc1)c1ccccc1 | INPPL1 phosphatase-C2 domains | enzyme activity, inhibitor | – | – | – | IC50 | > 900 µM
CC(=O)N[C@@H](Cc1ccc(OP(=O)(O)O)cc1)C(=O)N[C@H](C(=O)N1CCC[C@H]1C(=O)N1CCC[C@H]1C(=O)N1CCC[C@H]1C(N)=O)[C@@H](C)O | CBL TKB domain | – | – | – | – | Ki | 5 ± 2.2 µM

Excerpt of the above:
Structure (SMILES) | tested on | test | test system | conditions | scale | measurement | result
Cc1sc2c(c1C)C(c1ccc(Cl)cc1)=N[C@@H](CC(=O)OC(C)(C)C)c1nnc(C)n1-2 | NMC-797 | qRT-PCR, refers to: keratin-14 mRNA | – | 250 nM, 48 h | relative to: untreated | fold induction | 30 fold
CC(=O)NCCCC[C@H](NC(=O)CNC(=O)[C@H](CCCNC(=N)N)NC(=O)CNC(=O)[C@@H](N)CO)C(=O)NCC(=O)NCC(=O)N[C@@H](CCCCN)C(=O)NCC(=O)N[C@@H](CC(C)C)C(=O)O | Peregrin (BRPF1, Homo sapiens, UniProt P55201, Y665F) | – | – | – | – | Kd | no binding
